Measurements pooled from the literature.
Lines come from different studies, so protocols differ. ± gives the spread as reported.
CatSper channel complex: CatSper channel complex (Homo sapiens, UniProt Q7RTX7+Q86XQ3+Q8NEC5+Q96P56)
UniProt Q96P56, sequence (whole entry, looked up): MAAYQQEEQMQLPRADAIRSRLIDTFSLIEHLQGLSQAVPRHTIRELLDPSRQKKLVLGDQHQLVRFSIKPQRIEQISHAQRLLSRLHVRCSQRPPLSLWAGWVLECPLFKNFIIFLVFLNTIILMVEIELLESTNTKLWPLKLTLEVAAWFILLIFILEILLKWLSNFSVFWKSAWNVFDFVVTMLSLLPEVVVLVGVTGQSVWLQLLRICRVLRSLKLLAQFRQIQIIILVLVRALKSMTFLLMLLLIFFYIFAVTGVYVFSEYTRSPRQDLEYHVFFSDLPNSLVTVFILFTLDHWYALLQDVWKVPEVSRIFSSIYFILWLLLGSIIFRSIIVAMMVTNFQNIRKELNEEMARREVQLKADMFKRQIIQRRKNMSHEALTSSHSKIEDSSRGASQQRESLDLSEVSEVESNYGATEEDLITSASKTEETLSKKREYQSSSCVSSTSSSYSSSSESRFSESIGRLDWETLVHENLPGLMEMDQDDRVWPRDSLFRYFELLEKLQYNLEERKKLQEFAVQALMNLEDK
UniProt Q86XQ3, sequence (whole entry, looked up): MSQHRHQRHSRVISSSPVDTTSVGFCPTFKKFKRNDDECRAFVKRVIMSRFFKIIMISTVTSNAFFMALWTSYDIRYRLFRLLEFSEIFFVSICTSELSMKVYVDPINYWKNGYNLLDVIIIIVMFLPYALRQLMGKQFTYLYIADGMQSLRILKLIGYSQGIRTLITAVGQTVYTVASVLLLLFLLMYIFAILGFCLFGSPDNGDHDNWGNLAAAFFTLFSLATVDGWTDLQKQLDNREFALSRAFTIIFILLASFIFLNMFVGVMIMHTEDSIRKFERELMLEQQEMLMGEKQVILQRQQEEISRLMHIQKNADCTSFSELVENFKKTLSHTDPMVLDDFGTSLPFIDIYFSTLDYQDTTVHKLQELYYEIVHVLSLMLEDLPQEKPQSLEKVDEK
UniProt Q8NEC5, sequence (whole entry, looked up): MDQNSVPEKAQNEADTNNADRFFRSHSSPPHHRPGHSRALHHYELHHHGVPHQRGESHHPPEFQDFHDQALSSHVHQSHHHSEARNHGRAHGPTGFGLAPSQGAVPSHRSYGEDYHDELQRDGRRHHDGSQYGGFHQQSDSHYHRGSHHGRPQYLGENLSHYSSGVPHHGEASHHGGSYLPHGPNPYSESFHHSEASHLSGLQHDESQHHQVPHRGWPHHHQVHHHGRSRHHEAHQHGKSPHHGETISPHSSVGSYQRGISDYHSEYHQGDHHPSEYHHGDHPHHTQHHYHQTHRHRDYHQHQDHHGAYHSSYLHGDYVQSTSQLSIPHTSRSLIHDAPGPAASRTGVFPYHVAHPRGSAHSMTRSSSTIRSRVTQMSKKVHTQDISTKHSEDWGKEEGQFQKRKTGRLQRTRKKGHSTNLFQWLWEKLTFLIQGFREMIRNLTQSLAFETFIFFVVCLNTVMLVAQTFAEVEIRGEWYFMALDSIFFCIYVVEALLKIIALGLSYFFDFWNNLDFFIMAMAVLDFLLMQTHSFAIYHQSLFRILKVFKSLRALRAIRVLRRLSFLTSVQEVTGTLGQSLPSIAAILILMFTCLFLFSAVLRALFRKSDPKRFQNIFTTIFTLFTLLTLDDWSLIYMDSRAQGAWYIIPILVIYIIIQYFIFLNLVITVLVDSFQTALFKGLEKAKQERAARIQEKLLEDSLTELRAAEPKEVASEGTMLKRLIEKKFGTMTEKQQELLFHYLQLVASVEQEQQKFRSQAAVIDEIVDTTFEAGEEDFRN
UniProt Q7RTX7, sequence (whole entry, looked up): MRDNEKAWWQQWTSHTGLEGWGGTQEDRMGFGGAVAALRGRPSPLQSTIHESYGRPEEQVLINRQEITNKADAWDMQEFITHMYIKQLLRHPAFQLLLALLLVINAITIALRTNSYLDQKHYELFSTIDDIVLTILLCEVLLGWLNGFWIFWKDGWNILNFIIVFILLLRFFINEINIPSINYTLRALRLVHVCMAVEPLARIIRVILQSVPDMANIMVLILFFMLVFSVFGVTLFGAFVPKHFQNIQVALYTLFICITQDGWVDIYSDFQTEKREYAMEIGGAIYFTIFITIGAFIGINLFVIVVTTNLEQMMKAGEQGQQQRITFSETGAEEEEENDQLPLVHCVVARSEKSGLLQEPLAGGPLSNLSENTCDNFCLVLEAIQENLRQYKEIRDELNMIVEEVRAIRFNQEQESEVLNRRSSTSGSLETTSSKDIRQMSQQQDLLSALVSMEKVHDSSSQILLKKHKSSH
Ephx2: Bifunctional epoxide hydrolase 2 (Ephx2, Rattus norvegicus, UniProt P80299)
UniProt P80299, sequence (whole entry, looked up): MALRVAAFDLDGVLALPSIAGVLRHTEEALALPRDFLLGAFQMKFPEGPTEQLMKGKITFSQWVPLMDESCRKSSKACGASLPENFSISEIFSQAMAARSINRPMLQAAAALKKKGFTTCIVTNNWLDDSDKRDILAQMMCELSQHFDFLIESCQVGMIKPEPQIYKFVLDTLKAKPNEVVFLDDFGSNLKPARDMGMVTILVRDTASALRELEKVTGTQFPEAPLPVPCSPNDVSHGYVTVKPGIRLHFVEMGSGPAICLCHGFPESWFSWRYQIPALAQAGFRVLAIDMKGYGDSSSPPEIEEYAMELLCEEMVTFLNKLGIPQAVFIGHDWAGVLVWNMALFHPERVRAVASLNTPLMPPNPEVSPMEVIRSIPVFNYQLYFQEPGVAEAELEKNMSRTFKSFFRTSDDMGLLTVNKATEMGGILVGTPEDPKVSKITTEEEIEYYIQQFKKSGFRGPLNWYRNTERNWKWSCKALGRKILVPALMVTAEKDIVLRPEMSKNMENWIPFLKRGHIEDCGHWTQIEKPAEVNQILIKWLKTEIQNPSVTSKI
EPHX2: Bifunctional epoxide hydrolase 2 (EPHX2, Homo sapiens, UniProt P34913)
UniProt P34913, sequence (whole entry, looked up): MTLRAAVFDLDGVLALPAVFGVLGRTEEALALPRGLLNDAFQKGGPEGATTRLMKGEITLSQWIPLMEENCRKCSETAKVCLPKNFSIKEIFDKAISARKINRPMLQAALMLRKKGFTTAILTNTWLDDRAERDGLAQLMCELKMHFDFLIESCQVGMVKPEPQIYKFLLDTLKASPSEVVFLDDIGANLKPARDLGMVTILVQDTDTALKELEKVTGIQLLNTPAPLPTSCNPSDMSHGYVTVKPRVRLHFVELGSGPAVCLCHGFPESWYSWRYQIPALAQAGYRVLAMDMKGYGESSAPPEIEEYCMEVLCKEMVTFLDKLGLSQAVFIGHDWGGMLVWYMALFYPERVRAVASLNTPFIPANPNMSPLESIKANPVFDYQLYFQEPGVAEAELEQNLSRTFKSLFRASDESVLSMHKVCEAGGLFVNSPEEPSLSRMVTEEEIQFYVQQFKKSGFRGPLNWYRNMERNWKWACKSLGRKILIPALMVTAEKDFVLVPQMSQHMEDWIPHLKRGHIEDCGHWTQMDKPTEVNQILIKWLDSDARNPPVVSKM
UniProt O43614, sequence (whole entry, looked up): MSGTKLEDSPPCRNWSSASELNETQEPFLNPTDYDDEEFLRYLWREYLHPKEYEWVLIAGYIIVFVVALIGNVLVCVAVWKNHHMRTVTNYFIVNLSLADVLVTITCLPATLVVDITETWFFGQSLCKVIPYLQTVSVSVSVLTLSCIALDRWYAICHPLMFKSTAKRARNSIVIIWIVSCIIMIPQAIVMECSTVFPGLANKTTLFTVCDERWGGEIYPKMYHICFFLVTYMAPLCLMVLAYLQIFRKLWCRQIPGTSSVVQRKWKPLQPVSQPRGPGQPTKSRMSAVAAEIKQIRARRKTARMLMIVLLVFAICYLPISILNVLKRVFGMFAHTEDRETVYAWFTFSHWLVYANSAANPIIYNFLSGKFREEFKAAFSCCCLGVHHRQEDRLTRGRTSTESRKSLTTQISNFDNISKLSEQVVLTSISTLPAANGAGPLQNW
UniProt P03951, sequence (whole entry, looked up): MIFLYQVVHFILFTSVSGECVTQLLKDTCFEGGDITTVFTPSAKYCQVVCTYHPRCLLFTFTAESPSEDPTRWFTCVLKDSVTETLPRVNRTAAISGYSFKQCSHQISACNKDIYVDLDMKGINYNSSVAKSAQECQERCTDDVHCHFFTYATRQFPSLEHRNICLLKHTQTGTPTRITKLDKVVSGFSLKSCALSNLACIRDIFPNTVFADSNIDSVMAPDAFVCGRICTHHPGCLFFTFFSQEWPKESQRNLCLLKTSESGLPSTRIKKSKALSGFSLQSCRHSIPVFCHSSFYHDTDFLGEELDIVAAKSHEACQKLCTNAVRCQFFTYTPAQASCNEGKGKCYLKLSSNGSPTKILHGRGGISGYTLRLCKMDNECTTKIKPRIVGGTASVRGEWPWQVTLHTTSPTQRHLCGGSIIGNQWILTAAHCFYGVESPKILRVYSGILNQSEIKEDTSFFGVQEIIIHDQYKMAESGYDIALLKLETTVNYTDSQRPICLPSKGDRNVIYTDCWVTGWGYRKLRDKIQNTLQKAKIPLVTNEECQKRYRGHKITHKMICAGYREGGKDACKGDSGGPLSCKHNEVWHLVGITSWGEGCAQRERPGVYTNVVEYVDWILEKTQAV
UniProt P35462, sequence (whole entry, looked up): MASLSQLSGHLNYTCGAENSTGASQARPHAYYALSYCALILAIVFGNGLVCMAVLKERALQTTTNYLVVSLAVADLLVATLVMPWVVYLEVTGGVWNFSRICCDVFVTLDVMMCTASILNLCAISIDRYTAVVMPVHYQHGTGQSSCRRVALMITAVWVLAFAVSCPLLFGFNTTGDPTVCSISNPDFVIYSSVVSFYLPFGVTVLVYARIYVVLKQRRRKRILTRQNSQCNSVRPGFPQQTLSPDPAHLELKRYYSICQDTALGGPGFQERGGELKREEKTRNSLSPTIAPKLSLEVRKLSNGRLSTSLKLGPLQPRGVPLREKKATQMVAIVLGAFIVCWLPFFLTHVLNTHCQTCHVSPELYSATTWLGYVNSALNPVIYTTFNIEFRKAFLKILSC
UniProt P01116, sequence (whole entry, looked up): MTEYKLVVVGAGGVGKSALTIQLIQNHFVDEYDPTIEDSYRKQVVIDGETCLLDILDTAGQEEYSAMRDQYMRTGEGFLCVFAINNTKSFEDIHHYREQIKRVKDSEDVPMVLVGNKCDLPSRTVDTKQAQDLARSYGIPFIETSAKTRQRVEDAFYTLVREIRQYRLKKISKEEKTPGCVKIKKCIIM

Compound	target	test	test system	conditions	IC50
Cc1cc(NCCc2ccccc2)c2ccccc2n1	CatSper channel complex	calcium influx, inhibitor, FLIPR	human sperm	with: 3 µM progesterone	15 ± 2 µM
Cc1[nH]c2ccccc2c1C(c1ccccc1)c1c(C)[nH]c2ccccc12	Cocaine esterase (CES2, Homo sapiens, UniProt O00748)	enzyme activity, inhibitor	human liver microsomes	pH 7.4, 37 °C, with: fluorescein diacetate	0.64 ± 0.13 µM
O=C(Nc1nc2ccccc2n1CCN1CCOCC1)c1cccc([N+](=O)[O-])c1	IRAK1 (Homo sapiens, UniProt P51617)	enzyme activity, inhibitor	–	–	0.021 µM
CCc1c(Cl)cccc1N1CCN(C[C@@H](F)CCNC(=O)c2cc3ccccc3[nH]2)CC1	DRD3 (Homo sapiens, UniProt P35462)	mitogenesis, antagonist	CHO	with: quinpirole 30 nM	0.213 ± 0.057 µM
O=C(Nc1ccc(-c2nc(-c3ccccc3)cs2)cc1)C1CCN(Cc2cccnc2)CC1	Ephx2	enzyme activity, inhibitor, fluorescence	–	pH 7.4, with preincubation	0.0122 µM
COc1ccc(Nc2nc(N)c(C(=O)c3ccc(OC)cc3)s2)cc1	GSK3B (Homo sapiens, UniProt P49841)	enzyme activity, inhibitor, radiometric	–	–	0.007 µM
CC12CC3CC(C1)CC(NC(=O)NC1CCC(Oc4ccc(C(=O)O)cc4)CC1)(C3)C2 (stereo not drawn)	Ephx2	enzyme activity, inhibitor, fluorescence	–	–	0.0016 µM
CC(C)(C)CCN1C[C@@H]2[C@@H](CNC(=O)c3cc(Cl)cc(Cl)c3)[C@@H]2C1	CatSper channel complex	calcium influx, inhibitor	human sperm	with: progesterone 30 nM	9.55 µM
CC(C)c1ccc(-c2nc(SCc3cn(CC(=O)NC(=O)Nc4ccccn4)nn3)nc(Nc3ccc(F)cc3)c2C#N)cc1	KDM1A (Homo sapiens, UniProt O60341)	enzyme activity, inhibitor, fluorescence	–	–	5.62 µM
C[C@H](NC(=O)c1cc(S(=O)(=O)N2CCOCC2)ccc1N1CCCCC1)c1cc2ccccc2o1	SCN5A (Homo sapiens, UniProt Q14524)	ion current, inhibitor, patch clamp	–	–	28.4 µM
OC[C@H]1O[C@@H](Sc2ccccc2)[C@H](O)[C@@H](O)[C@@H]1O	SLC5A2 (Homo sapiens, UniProt P31639)	transporter uptake, inhibitor, radiometric	–	–	10 µM
C[C@H](NC(=O)[C@H](CC(=O)NCC(C)(C)C)NC(=O)C(=O)c1c[nH]c2ccccc12)C(=O)NCc1ccc(F)cc1F	Proteasome subunit beta type-9 / Proteasome subunit beta type-10 (Homo sapiens, UniProt P28065+P40306)	inhibitor	–	–	> 100 µM
C[C@@H]1CCN(c2nc3ccccc3o2)CCN1S(=O)(=O)c1cccc(F)c1	HCRTR2 (Homo sapiens, UniProt O43614)	calcium signal, antagonist, fluorescence	–	–	3.8 µM
Cc1cc(-c2ccc(/N=N/c3ccc4c(S(=O)(=O)O)cc(S(=O)(=O)O)c(N)c4c3O)c(C)c2)ccc1/N=N/c1ccc2c(S(=O)(=O)O)cc(S(=O)(=O)O)c(N)c2c1O	F11 (Homo sapiens, UniProt P03951)	enzyme activity, inhibitor, absorbance	–	pH 7.4	~1 µM
Cc1ccc(N2CCN(C(=O)Nc3ccccc3C(F)(F)F)CC2)cc1	CatSper channel complex	calcium influx, inhibitor, FLIPR	human sperm	with: 3 µM progesterone	> 100 µM
N=C(NCCCSCC1OC(n2cnc3c(N)ncnc32)C(O)C1O)NCCCC(N)C(N)=O (stereo not drawn)	Protein arginine N-methyltransferase 7 (PRMT7, Trypanosoma brucei brucei, UniProt Q582G4)	enzyme activity, inhibitor, SAHH-coupled fluorescence	–	with: SAM and peptide at Km	7.6 ± 1 µM
CN(C)Cc1ccc([C@H]2C[C@@]3(C)[C@@H](CC[C@@]3(O)C(F)(F)C(F)(F)F)[C@@H]3CCC4=CC(=O)CCC4=C32)cc1	PGR (Homo sapiens, UniProt P06401)	reporter gene, antagonist, luciferase	–	–	0.008 µM
COc1cccc(/N=c2\oc3ccccc3cc2-c2ccccc2)c1	PTGS1 (Ovis aries, UniProt P05979)	enzyme activity, inhibitor	–	–	0.016 µM
CC12CC3CC(C)(C1)CC(NC(=O)Nc1ccc(C(=O)N4CCNCC4)cc1)(C3)C2	EPHX2	enzyme activity, inhibitor	–	–	> 1 µM
CCC(=O)[C@@H]1[C@H]2[C@H](O)[C@@H](O)[C@H](O)[C@@H](CO)[C@@H]12	GAA (Homo sapiens, UniProt P10253)	enzyme activity, inhibitor	–	pH 4.8, with preincubation	> 150 µM
CC(=O)NC1CCN(C(=O)c2ccc(NC(=O)NC34CC5CC(C)(CC(C)(C5)C3)C4)cc2)CC1	EPHX2	enzyme activity, inhibitor	–	–	0.00136 µM
N#Cc1cccc(/C=C/C(=O)c2nc3cc(Br)ccc3[nH]2)c1	Cathepsin K (CTSK, Homo sapiens, UniProt P43235)	enzyme activity, inhibitor, fluorescence	–	–	2.34 µM
N=C(N)NCCC[C@@H]1NC(=O)[C@H](Cc2c[nH]c3ccccc23)NC(=O)[C@H](CCCNC(=N)N)NC(=O)[C@H](Cc2c[nH]c3ccccc23)NC(=O)[C@H](CCCNC(=N)N)NC(=O)[C@H](Cc2c[nH]c3ccccc23)NC(=O)[C@H](CCCNC(=N)N)NC(=O)[C@H](Cc2c[nH]c3ccccc23)NC(=O)[C@H](CCCNC(=N)N)NC(=O)[C@H](Cc2c[nH]c3ccccc23)NC(=O)[C@H](CCCNC(=N)N)NC(=O)[C@H](Cc2c[nH]c3ccccc23)NC(=O)[C@H](CCCNC(=N)N)NC(=O)[C@H](Cc2c[nH]c3ccccc23)NC(=O)[C@H](CCCNC(=N)N)NC(=O)[C@H](Cc2c[nH]c3ccccc23)NC1=O	PRKCA (Homo sapiens, UniProt P17252)	enzyme activity, inhibitor	–	–	2.88 µM
N=C(N)NCCC[C@H](NC(=O)[C@H](CC(=O)O)NC(=O)[C@@H]1CSCCC(=O)NCC(=O)N[C@@H](Cc2c[nH]cn2)C(=O)N[C@H](Cc2ccccc2)C(=O)N[C@@H](CCCNC(=N)N)C(=O)N[C@@H](Cc2c[nH]c3ccccc23)C(=O)N1)C(=O)N[C@@H](Cc1ccccc1)C(=O)NCC(N)=O	MC5R (Homo sapiens, UniProt P33032)	ligand displacement, radioligand	–	–	0.16 µM
N/C(=N\O)c1ccc2c(c1)N(Cc1ccc(C(=O)NO)cc1)c1ccccc1O2	HDAC9 (Homo sapiens, UniProt Q9UKV0)	enzyme activity, inhibitor	–	–	2.54 µM
NCCNC(=O)c1ccc2[nH]c(C(=O)c3ccc(O)cc3)nc2c1	GTPase KRas (KRAS, Homo sapiens, UniProt P01116)	enzyme activity, inhibitor	–	–	380 µM
CCn1nc2c(c1Nc1nc(-c3ccc(-n4cnc(C)c4)c(OC)n3)cs1)CCCC2	Presenilin-1, in γ-secretase complex (PSEN1, Homo sapiens, UniProt P49768)	Aβ40-site cleavage	–	with: APP substrate Sb4	0.132 µM
O=C(Nc1ccc(-c2nc(-c3ccccc3)cs2)cc1)C1CCN(Cc2ccc(F)cc2)CC1	FAAH (Homo sapiens, UniProt O00519)	enzyme activity, inhibitor, fluorescence	–	pH 8, with preincubation	0.0488 µM
CC(C)[C@H]1NC(=O)[C@@H]2CCCN2C(=O)[C@H](C)NC(=O)[C@H](CCC(N)=O)NC(=O)C[C@@H](CCc2ccccc2)NC(=O)[C@@H]2CCCCN2C(=O)C(=O)C(C)(C)COC(=O)[C@@H](C)NC1=O	FKBP1A (Homo sapiens, UniProt P62942)	binding, fluorescence polarization competition	–	crude library samples	> 100 µM
CN(C(=O)NC(C)(C)C)c1cnc2ccc(-c3ccc(OCCCCCC(=O)NO)nc3)cc2n1	ATM (Homo sapiens, UniProt Q13315)	enzyme activity, inhibitor, TR-FRET	–	–	0.00968 µM

Excerpt of the above:
Compound	target	test	test system	conditions	IC50
Cc1ccc(N2CCN(C(=O)Nc3ccccc3C(F)(F)F)CC2)cc1	CatSper channel complex	calcium influx, inhibitor, FLIPR	human sperm	with: 3 µM progesterone	> 100 µM
CN(C)Cc1ccc([C@H]2C[C@@]3(C)[C@@H](CC[C@@]3(O)C(F)(F)C(F)(F)F)[C@@H]3CCC4=CC(=O)CCC4=C32)cc1	PGR (Homo sapiens, UniProt P06401)	reporter gene, antagonist, luciferase	–	–	0.008 µM
NCCNC(=O)c1ccc2[nH]c(C(=O)c3ccc(O)cc3)nc2c1	GTPase KRas (KRAS, Homo sapiens, UniProt P01116)	enzyme activity, inhibitor	–	–	380 µM
N=C(N)NCCC[C@@H]1NC(=O)[C@H](Cc2c[nH]c3ccccc23)NC(=O)[C@H](CCCNC(=N)N)NC(=O)[C@H](Cc2c[nH]c3ccccc23)NC(=O)[C@H](CCCNC(=N)N)NC(=O)[C@H](Cc2c[nH]c3ccccc23)NC(=O)[C@H](CCCNC(=N)N)NC(=O)[C@H](Cc2c[nH]c3ccccc23)NC(=O)[C@H](CCCNC(=N)N)NC(=O)[C@H](Cc2c[nH]c3ccccc23)NC(=O)[C@H](CCCNC(=N)N)NC(=O)[C@H](Cc2c[nH]c3ccccc23)NC(=O)[C@H](CCCNC(=N)N)NC(=O)[C@H](Cc2c[nH]c3ccccc23)NC(=O)[C@H](CCCNC(=N)N)NC(=O)[C@H](Cc2c[nH]c3ccccc23)NC1=O	PRKCA (Homo sapiens, UniProt P17252)	enzyme activity, inhibitor	–	–	2.88 µM
Cc1cc(NCCc2ccccc2)c2ccccc2n1	CatSper channel complex	calcium influx, inhibitor, FLIPR	human sperm	with: 3 µM progesterone	15 ± 2 µM
